Measurements gathered from unrelated publications.
Compare with care: the assays were run in different laboratories. “And” joins repeats or separate records; there may be more than shown. pIC50: −log10 of the molar value.

Compound | target or system | assay | system | conditions | scale | measurement | result
CN1CCCNC(=O)c2cccc(c2)C(=O)NCCCN(C)CCCNc2cccc3c2C(=O)c2cccc(c2C3=O)NCCC1 | SAS | RNA-Seq, refers to: AARS2 mRNA |  | 1 µM, 6 h | relative to: untreated cells | log2 fold change | -1.4
C=C(NC(=O)c1csc(-c2nc3c(cc2O)-c2nc(cs2)C(=O)NC(C(C)O)C(=O)NC(=C(C)OC)c2nc(cs2)C(=O)NC2c4nc(cs4)C(=O)NC(COC(=O)c4c5c6c(cccc6n4O)COC(=O)C(OC4CC(C)(O)C(N(C)C)C(C)O4)C2OC5)c2nc-3cs2)n1)C(N)=O (centres unmarked) | Streptococcus pneumoniae |  | -4, immunocompromised mice, lung infection, lung | 32 mg/kg/day three times daily, 24 h post-dose |  | bacterial load | 3.7 log CFU/g
Nc1ncc(-c2cc(-c3cnn(CC(F)(F)F)c3)ncc2F)nc1C(=O)NC1CNCC(F)C1 (centres unmarked) | DAPK2 | KINOMEscan |  | 1 µM | relative to: DMSO control | remaining binding | 100%
C=CC(=O)Nc1cccc(Cn2ncc3cnc(Nc4cnn(CCOC)c4)nc32)c1 | MEK4 human | binding, KINOMEscan |  | 100 nM | lower = stronger binding | percent of control | 100%
CCOc1cncc(-c2ccc(NC(=O)C3(c4ccnc(NS(=O)(=O)C5CC5)n4)CCOCC3)nc2)n1 | lung cancer | cell viability, CellTiter-Glo | DMSO 0.1% | 72 h, line code 1674 |  | pIC50 | 7.09
CC(C)c1ccc(N(C)c2ccc3c(c2)OCC[C@H]3CNc2cnccc2C(=O)O)cc1 | NCI-H441 | cell growth or viability, ATP luminescence |  | 7 days |  | pIC50 | ≤ 5.00
CC1=C[C@@H](O/C=C2/C(=O)O[C@@H]3c4ccccc4C[C@H]23)OC1=O | Phelipanche ramosa | seed germination, stimulant | seeds | 1 µM | relative to: (±)-GR24 | maximum germination stimulation | 100%
O[C@@H](COc1ccc2cc(Br)ccc2c1)Cn1ccnc1 | Trypanosoma cruzi | reporter mRNA translation, inhibitor, refers to: capped polyadenylated Renilla luciferase mRNA | cell-free extract | concentration not given | relative to: control RNA | relative translation | 89.4%
CNS(=O)(=O)Nc1nccc(Cc2c(C)c3ccc(Oc4ncccc4F)cc3oc2=O)c1F | A704 | cell viability |  | 7 days |  | pIC50 | < 6.00
c1ccc(-c2n[nH]cc2-c2ccnc3ccccc23)nc1 | FPK1 (Candida albicans) | kinase binding, MIB/MS competition | Candida albicans lysate | 1 µM | relative to: DMSO | log2 fold change | -0.03
CC(C)N=c1cc2n(-c3ccc(Cl)cc3)c3ccccc3nc-2cc1Nc1ccc(Cl)cc1 | Trypanosoma cruzi | reporter mRNA translation, inhibitor, refers to: Renilla luciferase mRNA | cell-free extract | concentration not given | relative to: positive over negative control | translation activity | 98.4% and 145%
Cn1ncc2cc(-c3cncc(Cl)c3N3CCC4(CCNC4=O)CC3)ccc21 | LS174T | gene expression, microarray, refers to: RAG1 mRNA |  | concentration not given, 24 h | relative to: untreated cells | log2 fold change | 2.23
COC1CN([C@H]2CC[C@H]([C@@]3(C)Oc4c(Cl)cc(C(=O)NCc5c(SC)cc(C)[nH]c5=O)c(C)c4O3)CC2)C1 |  | RNA-seq, refers to: CDC42BPA mouse homolog | mouse, HT-1376 xenograft, whole blood | dose not given | relative to: vehicle | log2 fold change | 0.799
O=c1[nH]cc(C(c2ccccc2Br)c2c[nH]c(=O)[nH]c2=O)c(=O)[nH]1 | HIV-1 subtype C | p24 antigen production, p24 ELISA |  | 7.8 µg/mL |  | inhibition | < 25%
C=CC(=O)N1[C@@H](c2ccc3c(c2)OCO3)c2[nH]c3ccccc3c2C[C@H]1C(=O)N1CCN(C)CC1 | CCNE1 WT-3xFLAG:CDK2 complex | co-IP TMT proteomics, refers to: NPM1 | HEK-293T | 20 µM, 6 h | relative to: DMSO | log2 fold change | -0.1
CCN(CC)CC(=O)Nc1cccc(-n2cc(-c3ccc4ccc(-c5cn(-c6cccc(NC(=O)CN(CC)CC)c6)nn5)cc4c3)nn2)c1 | RCC4 | PCR angiogenesis array, refers to: ERBB2 |  | 5 x IC50, 6 h, normoxia | relative to: untreated | fold regulation | 1.18
Cc1ncsc1-c1ccc(C(C)NC(=O)C2CC(O)CN2C(=O)C(NC(=O)CCCCCCCCCCN2CCCC(Nc3ncc(Cl)c(Nc4ccccc4S(=O)(=O)C(C)C)n3)C2)C(C)(C)C)cc1 (centres unmarked) | 22Rv1 | RNA-seq, refers to: ZNF764 mRNA |  | concentration not given | relative to: DMSO | log2 fold change | -2.63

Some of these lines once more:
Compound | target or system | assay | system | conditions | scale | measurement | result
CC(C)N=c1cc2n(-c3ccc(Cl)cc3)c3ccccc3nc-2cc1Nc1ccc(Cl)cc1 | Trypanosoma cruzi | reporter mRNA translation, inhibitor, refers to: Renilla luciferase mRNA | cell-free extract | concentration not given | relative to: positive over negative control | translation activity | 98.4% and 145%
Cn1ncc2cc(-c3cncc(Cl)c3N3CCC4(CCNC4=O)CC3)ccc21 | LS174T | gene expression, microarray, refers to: RAG1 mRNA |  | concentration not given, 24 h | relative to: untreated cells | log2 fold change | 2.23
COC1CN([C@H]2CC[C@H]([C@@]3(C)Oc4c(Cl)cc(C(=O)NCc5c(SC)cc(C)[nH]c5=O)c(C)c4O3)CC2)C1 |  | RNA-seq, refers to: CDC42BPA mouse homolog | mouse, HT-1376 xenograft, whole blood | dose not given | relative to: vehicle | log2 fold change | 0.799
